# Assay results pooled from the literature.
# A part holds a random share of what one study measured.
# Sequence of UniProt Q09013 (whole entry, looked up): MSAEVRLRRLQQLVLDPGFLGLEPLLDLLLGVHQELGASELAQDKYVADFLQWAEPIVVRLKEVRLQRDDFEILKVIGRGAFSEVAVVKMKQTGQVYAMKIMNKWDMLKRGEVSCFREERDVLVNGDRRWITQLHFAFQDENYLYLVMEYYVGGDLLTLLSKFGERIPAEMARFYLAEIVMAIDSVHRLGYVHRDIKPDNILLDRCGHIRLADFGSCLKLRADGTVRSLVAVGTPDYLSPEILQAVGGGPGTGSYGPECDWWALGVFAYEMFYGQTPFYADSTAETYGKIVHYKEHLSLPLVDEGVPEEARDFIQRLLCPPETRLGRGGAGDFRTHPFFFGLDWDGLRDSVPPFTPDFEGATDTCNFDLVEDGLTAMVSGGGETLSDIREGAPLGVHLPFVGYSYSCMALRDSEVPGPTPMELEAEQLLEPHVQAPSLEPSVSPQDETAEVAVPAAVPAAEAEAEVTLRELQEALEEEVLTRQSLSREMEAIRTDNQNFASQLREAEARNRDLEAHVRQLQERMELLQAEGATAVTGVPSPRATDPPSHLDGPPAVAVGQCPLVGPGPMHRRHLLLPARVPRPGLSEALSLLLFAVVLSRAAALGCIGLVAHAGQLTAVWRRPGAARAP
# Sequence of UniProt Q05397 (whole entry, looked up): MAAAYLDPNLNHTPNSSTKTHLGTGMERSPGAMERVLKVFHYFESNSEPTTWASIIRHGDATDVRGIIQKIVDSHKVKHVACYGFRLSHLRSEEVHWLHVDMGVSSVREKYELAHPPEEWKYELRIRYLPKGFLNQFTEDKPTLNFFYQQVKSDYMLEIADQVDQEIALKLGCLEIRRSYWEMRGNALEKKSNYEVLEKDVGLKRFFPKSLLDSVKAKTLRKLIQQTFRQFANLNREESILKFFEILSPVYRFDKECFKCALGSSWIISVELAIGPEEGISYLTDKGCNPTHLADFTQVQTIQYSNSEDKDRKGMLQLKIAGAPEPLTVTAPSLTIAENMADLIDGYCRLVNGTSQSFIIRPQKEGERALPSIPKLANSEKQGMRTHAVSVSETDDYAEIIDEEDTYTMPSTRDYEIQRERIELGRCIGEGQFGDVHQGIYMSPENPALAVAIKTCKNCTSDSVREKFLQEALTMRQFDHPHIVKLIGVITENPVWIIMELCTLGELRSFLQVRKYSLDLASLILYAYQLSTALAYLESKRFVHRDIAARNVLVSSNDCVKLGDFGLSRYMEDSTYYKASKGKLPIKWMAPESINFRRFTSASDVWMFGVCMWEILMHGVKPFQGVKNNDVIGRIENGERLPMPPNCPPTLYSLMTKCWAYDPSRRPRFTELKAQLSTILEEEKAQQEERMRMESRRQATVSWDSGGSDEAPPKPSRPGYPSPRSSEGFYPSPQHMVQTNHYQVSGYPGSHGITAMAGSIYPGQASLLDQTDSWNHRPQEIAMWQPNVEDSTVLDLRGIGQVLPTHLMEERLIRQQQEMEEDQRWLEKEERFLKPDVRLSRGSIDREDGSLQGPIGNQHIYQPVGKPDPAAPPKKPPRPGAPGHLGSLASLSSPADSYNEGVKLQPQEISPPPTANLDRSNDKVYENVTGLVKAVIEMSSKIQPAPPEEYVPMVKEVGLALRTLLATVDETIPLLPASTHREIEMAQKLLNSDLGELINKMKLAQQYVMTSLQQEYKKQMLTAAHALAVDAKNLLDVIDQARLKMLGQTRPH
# Sequence of UniProt P23458 (whole entry, looked up): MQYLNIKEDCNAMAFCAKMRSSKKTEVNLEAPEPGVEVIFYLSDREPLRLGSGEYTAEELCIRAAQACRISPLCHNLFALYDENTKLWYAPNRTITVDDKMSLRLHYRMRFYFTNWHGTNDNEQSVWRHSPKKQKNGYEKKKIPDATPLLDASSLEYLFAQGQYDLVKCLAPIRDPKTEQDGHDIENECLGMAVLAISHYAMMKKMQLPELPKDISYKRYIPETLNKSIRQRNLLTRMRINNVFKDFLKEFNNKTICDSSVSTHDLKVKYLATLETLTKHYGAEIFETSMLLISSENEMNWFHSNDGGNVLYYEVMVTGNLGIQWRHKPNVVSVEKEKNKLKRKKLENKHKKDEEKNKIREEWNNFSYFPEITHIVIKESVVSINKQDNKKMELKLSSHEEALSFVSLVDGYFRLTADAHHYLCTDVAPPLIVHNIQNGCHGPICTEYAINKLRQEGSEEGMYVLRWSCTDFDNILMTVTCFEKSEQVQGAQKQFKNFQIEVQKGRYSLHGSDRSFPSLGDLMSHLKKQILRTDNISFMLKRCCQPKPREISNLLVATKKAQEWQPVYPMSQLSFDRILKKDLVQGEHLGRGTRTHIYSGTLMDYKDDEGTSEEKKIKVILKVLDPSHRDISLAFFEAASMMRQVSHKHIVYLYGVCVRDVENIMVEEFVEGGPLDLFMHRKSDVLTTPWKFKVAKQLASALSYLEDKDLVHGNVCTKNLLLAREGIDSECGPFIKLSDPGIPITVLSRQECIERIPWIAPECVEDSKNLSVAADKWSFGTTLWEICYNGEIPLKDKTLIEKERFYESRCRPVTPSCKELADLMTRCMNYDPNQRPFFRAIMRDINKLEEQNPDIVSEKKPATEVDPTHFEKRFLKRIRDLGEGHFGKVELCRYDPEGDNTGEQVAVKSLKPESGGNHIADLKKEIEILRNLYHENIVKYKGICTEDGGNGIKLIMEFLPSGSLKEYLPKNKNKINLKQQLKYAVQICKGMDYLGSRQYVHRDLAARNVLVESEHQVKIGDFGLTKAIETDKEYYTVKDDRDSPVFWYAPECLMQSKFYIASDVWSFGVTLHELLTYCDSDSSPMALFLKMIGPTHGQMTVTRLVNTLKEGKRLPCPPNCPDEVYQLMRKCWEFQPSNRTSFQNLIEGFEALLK
# Sequence of UniProt Q13557 (whole entry, looked up): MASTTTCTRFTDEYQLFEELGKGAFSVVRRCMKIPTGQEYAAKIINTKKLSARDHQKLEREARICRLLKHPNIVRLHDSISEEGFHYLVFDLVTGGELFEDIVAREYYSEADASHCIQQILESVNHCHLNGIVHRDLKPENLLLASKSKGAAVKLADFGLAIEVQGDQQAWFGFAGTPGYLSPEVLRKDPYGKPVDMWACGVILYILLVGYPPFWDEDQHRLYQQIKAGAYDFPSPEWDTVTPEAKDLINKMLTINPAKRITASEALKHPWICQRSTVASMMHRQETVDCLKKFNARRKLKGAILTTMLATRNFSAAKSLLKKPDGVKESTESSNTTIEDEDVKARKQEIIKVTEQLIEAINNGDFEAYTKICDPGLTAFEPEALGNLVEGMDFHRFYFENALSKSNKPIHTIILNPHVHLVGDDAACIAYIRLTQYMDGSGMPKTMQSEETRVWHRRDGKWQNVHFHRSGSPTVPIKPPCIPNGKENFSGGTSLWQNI
# Sequence of UniProt Q9Y616 (whole entry, looked up): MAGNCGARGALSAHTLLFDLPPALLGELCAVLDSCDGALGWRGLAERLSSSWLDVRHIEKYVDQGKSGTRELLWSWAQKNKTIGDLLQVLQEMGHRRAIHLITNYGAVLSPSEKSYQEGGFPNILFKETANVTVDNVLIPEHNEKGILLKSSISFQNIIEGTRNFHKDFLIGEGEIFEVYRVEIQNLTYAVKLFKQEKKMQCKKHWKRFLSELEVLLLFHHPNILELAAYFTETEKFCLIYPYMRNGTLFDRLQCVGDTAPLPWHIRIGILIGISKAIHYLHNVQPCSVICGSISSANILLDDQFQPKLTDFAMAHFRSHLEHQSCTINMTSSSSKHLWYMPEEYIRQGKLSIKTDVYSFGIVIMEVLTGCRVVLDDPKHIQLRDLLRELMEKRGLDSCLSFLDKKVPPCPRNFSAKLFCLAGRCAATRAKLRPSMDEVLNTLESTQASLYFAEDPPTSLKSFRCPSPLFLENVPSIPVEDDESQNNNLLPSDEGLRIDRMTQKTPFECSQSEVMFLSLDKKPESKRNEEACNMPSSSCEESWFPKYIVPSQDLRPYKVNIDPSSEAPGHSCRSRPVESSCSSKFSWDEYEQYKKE

# Set 1 — cell line: mouse MPNST tumor cells; technique: high-content nuclear imaging; refers to: cell number; tested at: 10 µM; time: 12 h; setting: mean of 2 replicates; reference: plate mean; reading: higher = more cells
SMILES,nuclei count [z-score]
CCOc1ccc(-n2c(C(C)N(Cc3cccnc3)C(=O)Cc3ccc(OC(F)(F)F)cc3)nc3ncccc3c2=O)cc1 (stereo not shown),3.68
CCS(=O)(=O)N(Cc1cccnc1)c1cccc(-c2ccc(C#N)cc2)c1,-0.292
O=C(O)c1ccccc1NC(=O)N1CCC(c2ccccc2C(F)(F)F)CC1,1.4
N#Cc1cc(F)c(C(=O)Nc2ccnc(NC(=O)[C@H]3C[C@H]3F)c2)c(Cl)c1,2.83
NCCNC(=O)c1ccc(Cl)cn1,0.854
CO[C@@H]1[C@@H](OC(N)=O)[C@@H](O)[C@H](Oc2ccc3c(O)c(NC(=O)c4ccc(O)c(CC=C(C)C)c4)c(=O)oc3c2C)OC1(C)C,0.332
COc1cc(/C=C2\CCCN([C@@H](C)c3ccc(F)cc3)C2=O)ccc1-n1cnc(C)c1,3.89

# Set 2 — action: agonist
# Target: Beta-1 adrenergic receptor (ADRB1, Homo sapiens, UniProt P08588)
# Sequence of UniProt P08588 (whole entry, looked up): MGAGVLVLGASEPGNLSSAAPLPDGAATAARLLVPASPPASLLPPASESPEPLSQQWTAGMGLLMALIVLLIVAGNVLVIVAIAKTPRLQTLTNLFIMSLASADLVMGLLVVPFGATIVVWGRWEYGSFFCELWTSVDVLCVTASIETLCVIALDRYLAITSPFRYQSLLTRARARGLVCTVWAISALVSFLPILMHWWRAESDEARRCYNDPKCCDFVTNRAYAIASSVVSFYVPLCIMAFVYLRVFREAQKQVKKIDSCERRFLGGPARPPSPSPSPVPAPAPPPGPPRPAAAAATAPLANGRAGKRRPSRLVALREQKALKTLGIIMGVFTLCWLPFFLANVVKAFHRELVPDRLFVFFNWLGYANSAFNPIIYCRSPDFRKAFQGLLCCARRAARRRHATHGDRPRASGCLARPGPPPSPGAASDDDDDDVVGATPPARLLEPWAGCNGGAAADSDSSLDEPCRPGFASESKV
Structure (SMILES),EC50
COc1ccc(-c2cc(N3CCCC3)nc(N)n2)c2ccc(C)nc12,≥ 100 µM
COc1ccccc1N1CCC(N2C(=O)C3CCCN3C2=O)CC1 (stereo not shown),≥ 100 µM
CN(C)CCN(C)C(=O)c1ccc(NC(=O)Nc2ccc(-c3nc(N4CCOCC4)c4ccn(CC(F)(F)F)c4n3)cc2)cc1,≥ 100 µM
OC(COc1ccc(CN2CC(N3CCOCC3)C2)cc1)CN1CCCCC1 (stereo not shown),≥ 100 µM
Cc1cccc(NC(=O)COc2ccc3c(C)cc(=O)oc3c2)c1,≥ 100 µM
c1ccc(-c2nc(-c3cnc4ccccc4n3)cs2)cc1,≥ 100 µM
Cc1noc2c(N3CCOCC3)cc(-c3ccc(F)cc3)nc12,≥ 100 µM
COc1ccccc1N1CCN([C@H]2[C@@H]3OC[C@@H](O3)[C@@H](NCc3ccc(-c4ccccc4)cc3)[C@@H]2O)CC1,≥ 100 µM

# Set 3 — observed: enzyme activity; action: inhibitor; tested at: 0.5 µM; reference: control
# Target: Casein kinase I isoform gamma-3 (CSNK1G3, Homo sapiens, UniProt Q9Y6M4)
# Sequence of UniProt Q9Y6M4 (whole entry, looked up): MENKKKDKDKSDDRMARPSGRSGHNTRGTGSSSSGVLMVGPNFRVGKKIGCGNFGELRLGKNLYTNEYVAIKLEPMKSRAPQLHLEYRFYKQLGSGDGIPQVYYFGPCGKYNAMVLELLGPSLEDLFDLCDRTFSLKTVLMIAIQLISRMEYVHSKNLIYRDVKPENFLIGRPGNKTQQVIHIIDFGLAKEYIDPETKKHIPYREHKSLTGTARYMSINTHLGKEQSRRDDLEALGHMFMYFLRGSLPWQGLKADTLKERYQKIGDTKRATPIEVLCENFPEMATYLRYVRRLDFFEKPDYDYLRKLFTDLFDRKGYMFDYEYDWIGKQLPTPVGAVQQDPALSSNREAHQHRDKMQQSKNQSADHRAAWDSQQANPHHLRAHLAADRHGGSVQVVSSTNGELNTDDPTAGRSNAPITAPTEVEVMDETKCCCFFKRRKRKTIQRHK
Structure (SMILES),remaining activity
Cc1ccc(NC(=O)c2ccc(CN3CCN(C)CC3)cc2)cc1Nc1nc(-c2cccnc2)cs1,96.8%
COc1ccc(C(=O)Nc2sc3c(c2C(N)=O)CCCC3)cc1OC,91.7%
CNC(=O)c1cc(Oc2ccc(NC(=O)Nc3ccc(Cl)c(C(F)(F)F)c3)cc2)ccn1,99.8%
NCCNc1ncc(C(N)=O)c(Nc2cccc(C(F)(F)F)c2)n1,93.9%
COc1ccc(CNC(=O)Nc2ncc([N+](=O)[O-])s2)cc1,90.4%
CC(C)[C@H](CO)Nc1nc(Nc2cc(N)cc(Cl)c2)c2ncn(C(C)C)c2n1,13.4%
O=C1NC(=O)C(c2cn(CCCO)c3ncccc23)=C1c1cnccn1,107%
Cc1nc(-c2ccccc2)c(-c2ccncc2)o1,104%
Cn1sc(=O)n(Cc2ccccc2)c1=O,114%
Cn1c2ccccc2c2c3c(c4c5ccccc5n(CCC#N)c4c21)CNC3=O,137%
Nc1ccc2ncnc(NCCc3ccc(Oc4ccccc4)cc3)c2c1,96.8%
O=S(=O)(c1cccc2cnccc12)N1CCCNCC1,85%
Nc1[nH]nc2nc3ccccc3nc12,95.6%
O=C1NC(=O)C(c2cn(CCCn3ccnc3)c3ccccc23)=C1Nc1ccccc1,110%
N#CC(C#N)=C(N)/C(C#N)=C/c1ccc(O)cc1,100%

# Set 4 — observed: cell-free assay; technique: competition with immobilised ligand; tested at: 0.1 µM
# SMILES: C[C@@H]1CN(c2cc(-c3n[nH]c4ccc(OC5(C)CC5)cc34)ncn2)C[C@H](C)O1
target,remaining binding
"IRAK3 (Homo sapiens, UniProt Q9Y616)",94%
"Tyrosine-protein kinase JAK1, JH1 (JAK1, Homo sapiens, UniProt P23458)",88%
"PTK2 (Homo sapiens, UniProt Q05397)",81%
"CAMK2D (Homo sapiens, UniProt Q13557)",100%
"AKT1 (Homo sapiens, UniProt P31749)",87%
"MAP2K3 (Homo sapiens, UniProt P46734)",71%
"DMPK (Homo sapiens, UniProt Q09013)",85%

# Excerpt of the above (set 3):
Structure (SMILES),remaining activity
Nc1[nH]nc2nc3ccccc3nc12,95.6%
O=C1NC(=O)C(c2cn(CCCn3ccnc3)c3ccccc23)=C1Nc1ccccc1,110%
N#CC(C#N)=C(N)/C(C#N)=C/c1ccc(O)cc1,100%
